Assay results pooled from the literature.
Lines come from different studies, so protocols differ. Numbers after ± are the reported error.
Organism: Plasmodium falciparum

For `COc1ccc2c(c1)C1CC(C)(N2)c2c(C)nc3ccc(OC)cc3c21` (stereo not shown), the IC50 was 6.7 nM (parasite growth, inhibitor, SYBR Green I; Cam3.1 R539T (MRA-1240)).
With `Oc1ccc(-c2ccc(O)c3ccccc23)c2c1C=NCC2` the IC50 was 2130 nM (parasite growth, SYBR Green; W2; drug-resistant strain, blood stage).
`CC1C=CC=CC(C)C2C=CC3CC(C)(O)C(Cl)C(C)C3C2C(=O)C(Cl)(Cl)C(=O)C(C)C(=O)O1` (stereo not shown) gave an IC50 of 43 nM (parasite growth, ELISA; DD2; drug-resistant strain, blood stage).
The IC50 of `C[OH+][Cu-2]12[O]C(c3cn(-c4ccccc4)nc3-c3ccc(Br)cc3)=N[N+]1=C(C)c1c(cc(C)oc1=O)[O]2` (stereo not shown) is reported as 25600 nM (parasite growth, SYBR Green I fluorescence; 3D7; 72 h).
`COc1ccc2cc1Oc1cc3c(cc1OC)CCN(C)C3Cc1ccc(cc1)Oc1c(O)c(OC)cc3c1C(C2)N(C)CC3` (stereo not shown) gave an IC50 of 2910 ± 230 nM (parasite growth, stage-specific treatment; 12 h, early to late ring stage).
The IC50 of `C[OH+][Cu-2]12[O]C(c3cn(-c4ccccc4)nc3-c3ccc(F)cc3)=N[N+]1=C(C)c1c(cc(C)oc1=O)[O]2` (stereo not shown) is reported as 36300 nM (parasite growth, SYBR Green I fluorescence; 3D7; 72 h).
For `CC(=O)c1c(O)c(C)c(O)c2c1OC1=CC(=O)C(=C(C)NCCCC(=O)OC3OC4OC5(C)CCC6C(C)CCC(C3C)C46OO5)C(=O)C12C` (stereo not shown), the IC50 was 1.4 nM (parasite growth, [3H]hypoxanthine incorporation; K1; erythrocytic stages).
`COC1=CC2=NCCc3c[nH]c(c32)C1=O` has an IC50 of 911 nM (parasite growth, SYBR Green; 3D7; blood stage).
The IC50 of `C[C@H]1[C@H](OC(=O)CCC(=O)OCc2nnn(-c3cc4ccc(O)cc4oc3=O)c2COC(=O)CCC(=O)O[C@@H]2O[C@@H]3O[C@@]4(C)CC[C@H]5[C@H](C)CC[C@@H]([C@H]2C)[C@@]35OO4)O[C@@H]2O[C@@]3(C)CC[C@H]4[C@H](C)CC[C@@H]1[C@@]24OO3` is reported as 5.3 nM (parasite growth; 3D7; 72 h, blood stage).
`C[C@@H]1CC[C@H]2[C@@H](C)C(=O)O[C@@H]3O[C@@]4(C)CC[C@@H]1[C@]32OO4` gave an IC50 of 0.69 nM (parasite growth; K1; 72 h, drug-resistant strain, blood stage).
The IC50 of `O=C1C(NCCc2cc(Br)c(O)c(Br)c2)=CC2=NCCc3c[nH]c1c32` is reported as 1080 nM (parasite growth, SYBR Green; 3D7; blood stage).
The IC50 of `CCN(CC)CCCC(C)Nc1ccnc2cc(Cl)ccc12` (stereo not shown) is reported as 28.2 ± 1.7 nM (parasite growth; Cam WT, artemisinin-sensitive; 72 h).
With `CC1CCC(C(C)(C)C(=O)Nc2ccc(Oc3ccccc3)cc2)CC1` (stereo not shown) the IC50 was 67 nM (parasite growth, SYBR Green; W2; blood stage).
For `CC1=N[C@H](C)Cc2c(-c3ccc4ccccc4c3)ccc(O)c21`, the IC50 was 870 nM (parasite growth, SYBR Green; W2; drug-resistant strain, blood stage).
`O[C@H](CNCCNC(c1ccccc1)c1ccccc1)c1cc(Cl)cc2c1-c1ccc(Cl)cc1C2` gave an IC50 of 1.8 nM (parasite growth, SYBR Green; W2; 48 h, drug-resistant strain, blood stage).
`COCCN(C)C(C)C(=O)NC(Cc1ccc(-c2ccccc2)cc1)B(O)O` (stereo not shown) gave an IC50 of 8050 ± 960 nM (compound-selected recrudescent clone 1E9_D11; 72 h).
The IC50 of `O=C1C(=O)c2[nH]cc3c2C(=C1I)NCC3` is reported as 8150 nM (parasite growth, SYBR Green; 3D7; blood stage).
`CCOC(=O)c1ccc2c(c1)C1CC(C)(N2)c2c(C)nc3ccc(C(=O)OCC)cc3c21` (single isomer, unassigned) gave an IC50 of 14400 nM (parasite growth, inhibitor, SYBR Green I; Cam3.1 R539T (MRA-1240)).
The IC50 of `CC(C)N1CCCCC1C(=O)NC(Cc1ccc(-c2ccccc2)cc1)B(O)O` (stereo not shown) is reported as 1000 nM (male gamete exflagellation; stage V gametocytes; 48 h).
`O[Si](CCCN1CCCCC1)(c1ccc(F)cc1)C1CCCCC1` (stereo not shown) has an IC50 of 22 nM (parasite growth, SYBR Green; DD2; blood stage).
`CC(=O)c1c(O)c(C)c(O)c2c1OC1=CC(=O)C(=C(C)NCCCCOC3OC4OC5(C)CCC6C(C)CCC(C3C)C46OO5)C(=O)C12C` (mixture of isomers) gave an IC50 of 0.008 µg/mL (parasite growth, 3H-hypoxanthine incorporation; K1; asexual erythrocytic stages).
`Oc1cccc2c1[nH]c1c(C3=CC4(O)CCC=CCCCCN5CCC3C3(CC6C=CCCCCN6C43)C5)nccc12` (single isomer, unassigned; (+)) has an IC50 of 0.022 ± 0.01 µg/mL (W2, chloroquine-resistant; 72 h).
For `C[C@@H]1C(=O)O[C@@H](C)/C=C/C=C\[C@@H](C)[C@@H]2C=C[C@@H]3C[C@]4(C)O[C@@H]4[C@@H](C)[C@H]3[C@@H]2C(=O)C(Cl)(Cl)C1=O`, the IC50 was 309 nM (parasite growth, ELISA; DD2; drug-resistant strain, blood stage).
The IC50 of `CC(=O)c1c(O)c(C)c(O)c2c1OC1=CC(=O)C(=C(C)NNc3ccnc4cc(Cl)ccc34)C(=O)C12C` (stereo not shown) is reported as 2120 nM (parasite growth, [3H]hypoxanthine incorporation; K1; erythrocytic stages).
`C[C@H]1[C@H](OC(=O)CCC(=O)OCc2cn(-c3cc4ccc(O)cc4oc3=O)nn2)O[C@@H]2O[C@@]3(C)CC[C@H]4[C@H](C)CC[C@@H]1[C@@]24OO3` has an IC50 of 66 ± 11 nM (3D7, supernatant of treated uninfected erythrocytes; 72 h, 500 nM preincubated 0.16 h).
With `CC(C)CCOC1C(C)C2C(C=CC3C(C)C=CC=CC(C)OC(=O)C(C)C(=O)C(Cl)(Cl)C(=O)C32)CC1(C)O` (stereo not shown) the IC50 was > 11000 nM (parasite growth, ELISA; DD2; drug-resistant strain, blood stage).
The IC50 of `COc1cc2c3cc1Oc1cc(ccc1O)CC1c4c(cc(OC)c(O)c4Oc4ccc(cc4)CC3N(C)CC2)CCN1C` (stereo not shown) is reported as 7340 nM (parasite growth, stage-specific treatment; 12 h, early to late ring stage).
With `C[C@H]1[C@@H](OCc2nnn(-c3cc4ccc(O)cc4oc3=O)c2CO[C@H]2O[C@@H]3O[C@@]4(C)CC[C@H]5[C@H](C)CC[C@@H]([C@H]2C)[C@@]35OO4)O[C@@H]2O[C@@]3(C)CC[C@H]4[C@H](C)CC[C@@H]1[C@@]24OO3` the IC50 was 0.58 nM (parasite growth; 3D7; 24 h, blood stage).
